Results gathered from unrelated publications.
Compare with care: the assays were run in different laboratories. “And” joins repeats or separate records; there may be more than shown. ± gives the spread as reported.
USP5 ZnF-UBD domain: Ubiquitin carboxyl-terminal hydrolase 5, ZnF-UBD domain (USP5, Homo sapiens, UniProt P45974)
Chain of UniProt P45974 (whole entry, looked up): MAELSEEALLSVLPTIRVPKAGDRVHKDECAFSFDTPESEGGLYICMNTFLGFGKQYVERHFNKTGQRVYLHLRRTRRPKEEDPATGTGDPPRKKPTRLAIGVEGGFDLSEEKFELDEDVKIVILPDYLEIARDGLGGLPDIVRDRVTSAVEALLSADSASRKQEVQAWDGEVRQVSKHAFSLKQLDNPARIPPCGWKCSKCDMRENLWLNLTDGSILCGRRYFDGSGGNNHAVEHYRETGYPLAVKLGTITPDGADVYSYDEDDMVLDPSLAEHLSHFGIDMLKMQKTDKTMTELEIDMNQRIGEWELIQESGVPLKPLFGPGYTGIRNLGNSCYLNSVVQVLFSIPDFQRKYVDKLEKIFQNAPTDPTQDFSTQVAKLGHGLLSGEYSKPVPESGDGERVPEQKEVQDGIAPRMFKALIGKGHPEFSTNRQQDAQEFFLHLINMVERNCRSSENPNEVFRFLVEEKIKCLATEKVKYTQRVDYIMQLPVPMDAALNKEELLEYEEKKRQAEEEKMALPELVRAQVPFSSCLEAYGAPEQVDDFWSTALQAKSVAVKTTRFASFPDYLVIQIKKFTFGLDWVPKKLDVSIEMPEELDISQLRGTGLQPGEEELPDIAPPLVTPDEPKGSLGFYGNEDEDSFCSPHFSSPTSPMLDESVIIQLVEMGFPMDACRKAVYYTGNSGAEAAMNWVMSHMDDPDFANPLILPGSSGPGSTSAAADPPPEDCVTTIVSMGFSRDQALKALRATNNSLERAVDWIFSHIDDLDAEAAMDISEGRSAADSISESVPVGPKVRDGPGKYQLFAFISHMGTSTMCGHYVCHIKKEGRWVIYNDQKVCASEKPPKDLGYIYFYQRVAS
Chain of UniProt Q96SW2 (whole entry, looked up): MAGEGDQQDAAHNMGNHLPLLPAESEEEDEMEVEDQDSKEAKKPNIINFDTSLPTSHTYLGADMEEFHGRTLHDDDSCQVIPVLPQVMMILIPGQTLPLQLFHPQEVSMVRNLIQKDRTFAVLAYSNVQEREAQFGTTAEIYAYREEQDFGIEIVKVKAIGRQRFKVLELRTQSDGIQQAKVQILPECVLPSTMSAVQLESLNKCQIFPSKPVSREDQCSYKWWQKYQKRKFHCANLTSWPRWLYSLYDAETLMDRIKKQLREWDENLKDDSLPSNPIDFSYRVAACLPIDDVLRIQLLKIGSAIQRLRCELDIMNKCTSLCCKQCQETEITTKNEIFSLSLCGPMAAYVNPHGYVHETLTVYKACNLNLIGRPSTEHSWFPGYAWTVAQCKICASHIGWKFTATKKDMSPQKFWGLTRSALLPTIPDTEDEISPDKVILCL
Chain of UniProt P15170 (whole entry, looked up): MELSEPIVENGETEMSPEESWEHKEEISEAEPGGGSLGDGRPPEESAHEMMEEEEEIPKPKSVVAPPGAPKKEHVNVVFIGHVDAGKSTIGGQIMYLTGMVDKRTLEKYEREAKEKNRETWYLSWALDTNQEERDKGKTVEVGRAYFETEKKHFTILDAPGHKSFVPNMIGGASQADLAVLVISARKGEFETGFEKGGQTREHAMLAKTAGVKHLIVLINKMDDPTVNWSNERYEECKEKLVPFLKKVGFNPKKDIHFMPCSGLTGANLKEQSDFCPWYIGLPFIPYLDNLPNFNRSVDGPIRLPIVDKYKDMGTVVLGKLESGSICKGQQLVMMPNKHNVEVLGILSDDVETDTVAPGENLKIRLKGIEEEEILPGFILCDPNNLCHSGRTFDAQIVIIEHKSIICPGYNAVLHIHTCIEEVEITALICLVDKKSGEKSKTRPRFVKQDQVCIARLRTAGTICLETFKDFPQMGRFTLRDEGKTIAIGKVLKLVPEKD
Chain of UniProt P14842 (whole entry, looked up): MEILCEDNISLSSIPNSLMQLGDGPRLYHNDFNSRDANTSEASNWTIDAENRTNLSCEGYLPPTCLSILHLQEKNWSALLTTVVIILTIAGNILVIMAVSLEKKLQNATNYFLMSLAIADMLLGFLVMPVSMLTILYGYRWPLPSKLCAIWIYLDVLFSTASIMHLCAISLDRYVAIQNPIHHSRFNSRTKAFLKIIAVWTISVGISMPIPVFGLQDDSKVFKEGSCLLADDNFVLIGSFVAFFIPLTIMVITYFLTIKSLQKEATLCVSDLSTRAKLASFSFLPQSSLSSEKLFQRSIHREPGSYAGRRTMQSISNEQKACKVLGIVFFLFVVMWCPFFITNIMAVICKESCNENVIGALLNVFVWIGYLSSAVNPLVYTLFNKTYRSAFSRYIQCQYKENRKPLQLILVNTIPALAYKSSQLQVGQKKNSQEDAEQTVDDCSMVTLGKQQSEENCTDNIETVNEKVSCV

[Cl-].[Cl-].[Pt+2].[Ru+2].c1ccc(-c2nc3ccccc3nc2-c2ccccn2)nc1.c1cnc2c(c1)ccc1cccnc12.c1cnc2c(c1)ccc1cccnc12  nicked circular DNA (pcDNA supercoiled plasmid; agarose gel electrophoresis; 10 µM, photoinduced cleavage, with: 0.1 µM pcDNA): 7.4%
CCn1c(=O)c2c(nc(/C=C/c3ccc(OC)c(OC)c3)n2C)n(CC)c1=O  Papp (MDCK; 1 µM, 90 min, pH 6.5 apical, 7.4 basolateral, apical to basolateral): 31.2 ×10⁻⁶ cm/s
NCc1cc2c(cc1F)C(=O)N(C1CCC(=O)NC1=O)C2 (centres unmarked)  DC50 (GSPT1/CRBN (Homo sapiens, UniProt P15170+Q96SW2); degrader, Western blot; Hep3B; 6 h): < 0.01 µM
CC(C)[C@H](NC(=O)[C@H](Cc1ccc(O)cc1)NC(=O)[C@H](Cc1ccc(O)cc1)NC(=O)[C@@H]1CCCN1C(=O)[C@H](CCC(=O)O)NC(=O)[C@H](CCC(=O)O)NC(=O)[C@H](Cc1c[nH]c2ccccc12)NC(=O)[C@@H]1CCCN1C(=O)[C@@H](NC(=O)[C@H](CCC(N)=O)NC(=O)c1ccc2c(c1)C(=O)OC21c2ccc(O)cc2Oc2cc(O)ccc21)C(C)C)C(=O)N[C@H](C(=O)N[C@@H](CCCCN)C(=O)N[C@@H](CCCCN)C(=O)N[C@@H](CO)C(=O)N[C@@H](CO)C(=O)NCC(=O)NCC(N)=O)C(C)C  plasma concentration (human, plasma; intravenous infusion, 400 mg, 0.25 h after infusion start): 21200 ng/mL and 11900 ng/mL
COC(=O)[C@H](Cc1c[nH]c2ccccc12)NCc1cc2ccccc2nc1OC  growth (Pseudomonas aeruginosa; 16 µg/mL, without pentamidine; reference: control): 93.7%
COc1ncncc1-c1cn([C@@H]2O[C@](F)(CO)[C@@H](O)[C@H]2O)cn1  EC50 (Dengue virus; viral replication; Huh-7, DENV-4; 48 h): > 100 µM
Oc1c(Br)cc(Br)c2cccnc12  activity score (human iPSC-derived cardiomyocytes; MyBP-C/MYH ratio, plate-normalised SD score; concentration not given, primary screen; direction not given): 4.9
COc1nc(N)ncc1-c1cn([C@@H]2O[C@](F)(COC(=O)C(C)C)[C@@H](OC(=O)C(C)C)[C@H]2OC(=O)C(C)C)cn1  EC50 (Dengue virus; viral replication; Huh-7, DENV-2; 48 h): 2.3 µM
CCn1cc(-c2cc(Cn3ccoc3=N)cc3c2CCN([C@@H](C)c2cc(OC)ccn2)C3=O)c(C(F)(F)F)n1  EC50 (NCI-H929; cell growth, inhibitor; 120 h): 1.2 µM
CC(C)C(=O)OC[C@@]1(F)O[C@@H](n2cnc(-c3cnc(N)[nH]c3=O)c2)[C@H](OC(=O)C(C)C)[C@@H]1OC(=O)C(C)C  EC50 (Dengue virus; viral replication; Huh-7, DENV-4; 48 h): > 100 µM
Oc1ccccc1-c1n[nH]cc1-c1ccnc2ccccc12  log2 fold change (TPK1 (Candida albicans); kinase binding, MIB/MS competition; Candida albicans lysate; 1 µM; reference: DMSO): 0.09
[Cl-].[Cl-].[Pt+2].[Ru+2].c1ccc(-c2nccnc2-c2ccccn2)nc1.c1cnc2c(c1)ccc1cccnc12.c1cnc2c(c1)ccc1cccnc12  supercoiled DNA (pcDNA supercoiled plasmid; agarose gel electrophoresis; 10 µM, photoinduced cleavage, with: 0.1 µM pcDNA): 81.7%
CC(Nc1nc(N2CCCC2)nc2ccccc12)c1ccccc1 (centres unmarked)  cells with nuclear SREBP1 (importin beta-1; SREBP1 nuclear import, high content imaging; HeLa Kyoto; 0.16 µM, 3 h, with: glucose and MG132): 85.7% and 88.3% and 91.6% and 81.3%
CC(C)C[C@H](NC(=O)C[C@H](O)[C@H](CC(C)C)NC(=O)[C@H](Cc1c[nH]cn1)NC(=O)CNC(=O)[C@@H](NC(=O)[C@H](C)NC(=O)[C@H](Cc1c[nH]c2ccccc12)NC(=O)[C@H](CCC(N)=O)NC(=O)[C@@H](Cc1ccccc1)NC(=O)COCCOCCNC(=O)CN1CCN(CC(=O)O)CCN(CC(=O)O)CCN(CC(=O)O)CC1)C(C)C)C(N)=O [lutetium-177 labelled]  tissue uptake (female BALB/c nu/nu mice, muscle; intravenous, 50 pmol, 1 h): 0.1 ± 0.03 %ID/g
c1coc(-c2n[nH]cc2-c2ccnc3ccccc23)c1  log2 fold change (KIN3 (Candida albicans); kinase binding, MIB/MS competition; Candida albicans lysate; 1 µM; reference: DMSO): -0.22
COc1ccc(-n2nc(C(N)=O)c3c2C(=O)N(c2ccc(N4CCCCC4=O)cc2)CC3)cc1  activity score (human iPSC-derived cardiomyocytes; MyBP-C/MYH ratio, plate-normalised SD score; concentration not given, primary screen; direction not given): -3.7
CC(C)C[C@H](NC(=O)C[C@H](O)[C@H](CC(C)C)NC(=O)[C@H](Cc1c[nH]cn1)NC(=O)CNC(=O)[C@@H](NC(=O)[C@H](C)NC(=O)[C@H](Cc1c[nH]c2ccccc12)NC(=O)[C@H](CCC(N)=O)NC(=O)[C@@H](Cc1ccccc1)NC(=O)COCCOCCNC(=O)CCC(C(=O)O)N1CCN(CC(=O)O)CCN(CC(=O)O)CCN(CC(=O)O)CC1)C(C)C)C(N)=O (some centres unmarked) [lutetium-177 labelled]  tissue uptake (BALB/c nu/nu mice, blood; intravenous, 500 pmol, 1 h, with: PA 300 µg): 0.35 ± 0.04 %ID/g
O=C(O)CCn1sc2ccccc2c1=O  Kd (USP5 ZnF-UBD domain): > 1000 µM
CCn1cc(-c2cc(Cn3ccnc3)cc3c2CCN([C@H](c2cc(OC)ccn2)C2CC2)C3=O)c(C(F)(F)F)n1  EC50 (SNU1076; cell growth; 120 h): > 30 µM
CCOc1ccc(NC(=O)CC(C)O)cc1 (centres unmarked)  activity score (human iPSC-derived cardiomyocytes; MyBP-C/MYH ratio, plate-normalised SD score; concentration not given, primary screen; direction not given): 13.4
O=C(O)CCc1cn2cccnc2n1  Kd (USP5 ZnF-UBD domain): > 1000 µM
CC(C)COCC(CN(Cc1ccccc1)c1ccccc1)N1CCCC1 (centres unmarked)  activity score (human iPSC-derived cardiomyocytes; MyBP-C/MYH ratio, plate-normalised SD score; concentration not given, primary screen; direction not given): 4.8
CC[C@H](CO)N(CCN(N=O)[C@H](CC)CO)N=O  revertant colonies per plate (Escherichia coli; mutagenicity, Ames plate incorporation; WP2 uvrA pKM101; 150 µg/plate, without S9, methanol): 149 ± 18
[Cl-].[Cl-].[Pt+2].[Ru+2].c1ccc(-c2nc3cc4ccccc4cc3nc2-c2ccccn2)nc1.c1cnc2c(c1)ccc1cccnc12.c1cnc2c(c1)ccc1cccnc12  nicked circular DNA (pcDNA supercoiled plasmid; agarose gel electrophoresis; 100 µM, photoinduced cleavage, with: 0.1 µM pcDNA): 15.6%
O=C(/C=C/C=C/C=C/C1CCCCC1)NC1=C[C@@](O)(/C=C/C=C/C=C/C(=O)NC2=C(O)CCC2=O)[C@@H]2O[C@@H]2C1=O  GI50 (rmugs; cell growth, inhibitor, CellTiter-Glo luminescence; 78 h; reference: day 0 cell count): 28.8 µM
CCN1/C(=C/C(C)=O)Sc2ccc(F)cc21  PR interval change (cynomolgus monkey; oral, 30 mg/kg, 0.5 h post-dose; reference: pre-dose): 100 ± 2.1%
O=C1CCC(N2C(=O)c3ccccc3C2=O)C(=O)N1 (centres unmarked)  activity score (human iPSC-derived cardiomyocytes; MyBP-C/MYH ratio, plate-normalised SD score; concentration not given, primary screen; direction not given): 4.9
CCS(=O)(=O)c1nc(C2CC2)cc(C(F)(F)F)n1  cells with nuclear SREBP1 (importin beta-1; SREBP1 nuclear import, high content imaging; HeLa Kyoto; 0.16 µM, 3 h, with: glucose and MG132): 84.8% and 83.5% and 88.9% and 90.2%
Nc1ncc(-c2cn([C@@H]3O[C@](F)(CO)[C@@H](O)[C@H]3O)cn2)cn1  EC50 (Dengue virus; viral replication; Huh-7, DENV-4; 48 h): > 100 µM
N#C[C@@]12C[C@@H]1[C@@H](n1cnc3c(NC4CCCC4)nc(I)nc31)[C@H](O)[C@@H]2O  Kb (5-hydroxytryptamine receptor 2A (Rattus norvegicus, UniProt P14842); antagonist, Gq dissociation BRET; rat receptor): 5.51 µM
Cn1cc(-c2ccc(-c3cncc(Cl)c3N3CCC4(CCNC4=O)CC3)cc2)cn1  log2 fold change (COLO 205; gene expression, microarray, refers to: CALD1 mRNA; concentration not given, 2 h; reference: untreated cells): 1.77
COc1c(-c2coc3cc4c(cc3c2=O)CC(O)C(C)(C)O4)ccc2c1C=CC(C)(C)O2 (centres unmarked)  activity score (human iPSC-derived cardiomyocytes; MyBP-C/MYH ratio, plate-normalised SD score; concentration not given, primary screen; direction not given): 9.2
C[C@@H](O)[C@H]1C(=O)N2C(C(=O)O)=C(SCCN=CN)C[C@H]12  bacterial load (Escherichia coli; 2904, female ICR mice, peritonitis, heart; dose not given, 168 h): 3.43 log CFU and 3.82 log CFU and 4.16 log CFU and 3.7 log CFU and 3.98 log CFU
COc1cnc2cccc(N3CCc4c(cc(Cn5ccnc5C)cc4-c4cn(C)nc4C(F)(F)F)C3=O)c2c1  EC50 (SNU478; cell growth; 120 h): 0.0271 µM
CCCCCCCCCCCCCCCCOP(=O)([O-])OCC[N+](C)(C)C  activity score (human iPSC-derived cardiomyocytes; MyBP-C/MYH ratio, plate-normalised SD score; concentration not given, primary screen; direction not given): 13.4
Cc1cc(Nc2ccc(S(F)(F)(F)(F)F)cc2)n2nc(C(C)(F)F)nc2n1  patients with QTcB increase (Plasmodium vivax; 12-lead ECG; malaria patients; oral, 800 mg, increase above 60 ms): 0%
CCNC(=O)c1noc(-c2cc(C(C)C)c(O)cc2O)c1-c1ccc(CN2CCOCC2)cc1  MyBP-C level (MYBPC3 iPSC cardiomyocytes; plate-normalised; concentration not given, 24 h, hit retest): 17%
CC[S+]([O-])c1nc(-c2ccccc2)cc(C(F)(F)F)n1 (centres unmarked)  cells with nuclear SREBP1 (importin beta-1; SREBP1 nuclear import, high content imaging; HeLa Kyoto; 0.05 µM, 3 h, with: glucose and MG132): 86.6% and 87.2% and 84.7% and 86.8%

Some of these lines once more:
CC(C)C[C@H](NC(=O)C[C@H](O)[C@H](CC(C)C)NC(=O)[C@H](Cc1c[nH]cn1)NC(=O)CNC(=O)[C@@H](NC(=O)[C@H](C)NC(=O)[C@H](Cc1c[nH]c2ccccc12)NC(=O)[C@H](CCC(N)=O)NC(=O)[C@@H](Cc1ccccc1)NC(=O)COCCOCCNC(=O)CCC(C(=O)O)N1CCN(CC(=O)O)CCN(CC(=O)O)CCN(CC(=O)O)CC1)C(C)C)C(N)=O (some centres unmarked) [lutetium-177 labelled]  tissue uptake (BALB/c nu/nu mice, blood; intravenous, 500 pmol, 1 h, with: PA 300 µg): 0.35 ± 0.04 %ID/g
O=C(O)CCn1sc2ccccc2c1=O  Kd (USP5 ZnF-UBD domain): > 1000 µM
CCn1cc(-c2cc(Cn3ccnc3)cc3c2CCN([C@H](c2cc(OC)ccn2)C2CC2)C3=O)c(C(F)(F)F)n1  EC50 (SNU1076; cell growth; 120 h): > 30 µM
CCOc1ccc(NC(=O)CC(C)O)cc1 (centres unmarked)  activity score (human iPSC-derived cardiomyocytes; MyBP-C/MYH ratio, plate-normalised SD score; concentration not given, primary screen; direction not given): 13.4
O=C(O)CCc1cn2cccnc2n1  Kd (USP5 ZnF-UBD domain): > 1000 µM
CC(C)COCC(CN(Cc1ccccc1)c1ccccc1)N1CCCC1 (centres unmarked)  activity score (human iPSC-derived cardiomyocytes; MyBP-C/MYH ratio, plate-normalised SD score; concentration not given, primary screen; direction not given): 4.8
